Measured values from different studies.
Each line is one published result; not all experiments were run side by side.

| Molecule | assay | setting | pKa |
| --- | --- | --- | --- |
| nuc G50F/V51N/P117G/H124L/S128A/del44-49/L38E/E122Q (Staphylococcus aureus) | NMR, item: His121 | 298 K, KCl 100 mM, numbering of the source | 5.7 |
| ksi Y16A/D40N/D103N (Pseudomonas putida) | UV-vis, item: Tyr57 | 25 °C | > 10 |
| CISD1 soluble cytoplasmic domain (Homo sapiens, UniProt Q9NZ45) | UV-vis, item: His87 | NaCl 100 mM, cluster oxidised | 6.8 |
| ketosteroid isomerase D40N (Pseudomonas putida) | UV-vis, item: Tyr57 | apparent, D2O, apo enzyme | 6.65 |
| FIS1 cytosolic domain, lacks C-terminal 29 (Saccharomyces cerevisiae, UniProt P40515) | NMR, item: His106 | 25 °C, NaCl 50 mM | 6.04 |
| nuc G50F/V51N/P117G/H124L/S128A/del44-49 (Staphylococcus aureus) | NMR, item: His121 | 298 K, KCl 100 mM, numbering of the source | 5.4 |
| CRYGD P23T (Homo sapiens) | NMR, item: His83 | 25 °C, numbering of the source | 5.9 |
| Nitrophorin 2 V24E, heme b (Rhodnius prolixus) | NMR, item: Glu24 | 35 °C, D2O, low-spin Fe(III), imidazole-bound, numbering of the source | 6.5 |
| CISD1 K55E (Homo sapiens) | redox potentiometric titration, item: His87 | oxidised cluster, His87 | 9.2 |
| CYC1 K72A/K79G/C102S, Met80 sulfoxide (Saccharomyces cerevisiae) | UV-vis, item: Lys73 | numbering of the source | 6.5 |
| ahpC (Salmonella typhimurium, UniProt P0A251) | chemical modification, mass spectrometry, item: Cys165 | ammonium sulfate 100 mM, numbering of the source | 8.74 |
| ksi D40L/D103N (Pseudomonas putida) | UV-vis, item: Tyr57 | 25 °C | > 10 |
| nuc G50F/V51N/P117G/H124L/S128A/del44-49/L38E (Staphylococcus aureus) | NMR, item: His8 | 298 K, KCl 100 mM, numbering of the source | 6.5 |
| ORF56 (Sulfolobus islandicus, UniProt Q54323) | NMR, item: Lys6 | free native homodimer, low salt | 9.66 |
| PCSK1 propeptide domain (Homo sapiens, UniProt P29120) | mass spectrometry, item: His75 | apparent, histidine H/D exchange, pepsin digest | 5.97 |
| nuc G50F/V51N/P117G/H124L/S128A/del44-49/L38D/E122Q (Staphylococcus aureus) | NMR, item: His121 | 298 K, KCl 100 mM, numbering of the source | 5.8 |
| PBP1 mature (Amyelois transitella) | NMR, item: His69 | 25 °C, free protein; not delipidated | > 7 |

| Molecule | assay | setting | pKa |
| --- | --- | --- | --- |
| PRL (Homo sapiens, UniProt P01236) | NMR, item: His46 | 35 °C, numbering of the source | 6.56 |
| proteorhodopsin, retinal (uncultured gamma-proteobacterium EBAC31A08, UniProt Q9F7P4) | UV-vis, item: Asp97 | NaCl 100 mM, large DMPC nanodisc, monomeric | 6.5 |
| iscU apo (Escherichia coli, UniProt P0ACD4) | NMR titration, item: His10 | 25 °C, NaCl 150 mM, D-state, averaged, apo | 7 |
| ksi D40N/F56A/D103N (Pseudomonas putida) | UV-vis, item: Tyr57 | 25 °C | 7.4 |
| nuc G50F/V51N/P117G/H124L/S128A/del44-49/L38D (Staphylococcus aureus) | NMR, item: His121 | 298 K, KCl 100 mM, numbering of the source | 5.7 |
| ksi D40H/D103N (Pseudomonas putida) | UV-vis, item: Tyr57 | 25 °C | 8.8 |
| CRYGD (Homo sapiens, UniProt P07320) | NMR, item: His65 | 25 °C, numbering of the source | 6.02 |
| ksi D40N/D103L (Pseudomonas putida) | UV-vis, item: Tyr57 | 25 °C | 8.2 |
| WT1 zinc finger 4 (Homo sapiens, UniProt P19544) | NMR, item: Cys10 | 288 K, KCl 10 mM, apo, unfolded, reduced, numbering of the source | 7.9 |
| Txnrd2 mitochondrial del C-terminal eight residues (Mus musculus) | UV-vis, item: Cys57 | NaCl 300 mM, numbering of the source, added: NADPH 250 µM | 5.02 |
| ksi D40E/D103N (Pseudomonas putida) | UV-vis, item: Tyr57 | 25 °C | > 10 |
| Msrb2 fragment (Mus musculus) | NMR, item: His148 | 298 K, NaCl 25 mM, reduced, Zn2+-bound, substrate-free | 7.2 |
| ksi D40N/F86A (Pseudomonas putida) | UV-vis, item: Tyr57 | 25 °C | 6.3 |
| rnpA F107W (Bacillus subtilis) | NMR, item: His3 | 25 °C, 0.50 M NaCl, folded, sulfate-bound, added: sulfate 20 mM | 6.25 |
| nuc G50F/V51N/P117G/H124L/S128A/del44-49/L38K (Staphylococcus aureus) | NMR, item: His8 | 298 K, KCl 100 mM, numbering of the source | 6.5 |
| ksi D40N/F56A (Pseudomonas putida) | UV-vis, item: Tyr57 | 25 °C | 6.9 |

A few entries again:
| Molecule | assay | setting | pKa |
| --- | --- | --- | --- |
| CRYGD (Homo sapiens, UniProt P07320) | NMR, item: His65 | 25 °C, numbering of the source | 6.02 |
| ksi D40N/D103L (Pseudomonas putida) | UV-vis, item: Tyr57 | 25 °C | 8.2 |
| WT1 zinc finger 4 (Homo sapiens, UniProt P19544) | NMR, item: Cys10 | 288 K, KCl 10 mM, apo, unfolded, reduced, numbering of the source | 7.9 |
| Txnrd2 mitochondrial del C-terminal eight residues (Mus musculus) | UV-vis, item: Cys57 | NaCl 300 mM, numbering of the source, added: NADPH 250 µM | 5.02 |
